Experimental data of several laboratories.
Every numbered part comes from another study and shows a few of its results, in no order. Several values in a cell are separate wells, animals, samples, runs or records.
Chain of UniProt P15735 (whole entry, looked up): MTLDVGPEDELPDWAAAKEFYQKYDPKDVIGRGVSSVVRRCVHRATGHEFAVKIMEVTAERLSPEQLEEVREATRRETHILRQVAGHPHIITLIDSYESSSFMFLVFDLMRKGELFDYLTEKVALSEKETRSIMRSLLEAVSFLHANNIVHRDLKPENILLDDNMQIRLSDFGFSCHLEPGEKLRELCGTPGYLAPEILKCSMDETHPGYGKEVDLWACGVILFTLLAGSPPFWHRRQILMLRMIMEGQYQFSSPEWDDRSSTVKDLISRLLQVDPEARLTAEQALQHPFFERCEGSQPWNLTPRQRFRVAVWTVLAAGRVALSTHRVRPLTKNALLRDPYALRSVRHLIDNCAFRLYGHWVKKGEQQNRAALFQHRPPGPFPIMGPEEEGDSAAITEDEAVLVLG
Chain of UniProt Q7L7X3 (whole entry, looked up): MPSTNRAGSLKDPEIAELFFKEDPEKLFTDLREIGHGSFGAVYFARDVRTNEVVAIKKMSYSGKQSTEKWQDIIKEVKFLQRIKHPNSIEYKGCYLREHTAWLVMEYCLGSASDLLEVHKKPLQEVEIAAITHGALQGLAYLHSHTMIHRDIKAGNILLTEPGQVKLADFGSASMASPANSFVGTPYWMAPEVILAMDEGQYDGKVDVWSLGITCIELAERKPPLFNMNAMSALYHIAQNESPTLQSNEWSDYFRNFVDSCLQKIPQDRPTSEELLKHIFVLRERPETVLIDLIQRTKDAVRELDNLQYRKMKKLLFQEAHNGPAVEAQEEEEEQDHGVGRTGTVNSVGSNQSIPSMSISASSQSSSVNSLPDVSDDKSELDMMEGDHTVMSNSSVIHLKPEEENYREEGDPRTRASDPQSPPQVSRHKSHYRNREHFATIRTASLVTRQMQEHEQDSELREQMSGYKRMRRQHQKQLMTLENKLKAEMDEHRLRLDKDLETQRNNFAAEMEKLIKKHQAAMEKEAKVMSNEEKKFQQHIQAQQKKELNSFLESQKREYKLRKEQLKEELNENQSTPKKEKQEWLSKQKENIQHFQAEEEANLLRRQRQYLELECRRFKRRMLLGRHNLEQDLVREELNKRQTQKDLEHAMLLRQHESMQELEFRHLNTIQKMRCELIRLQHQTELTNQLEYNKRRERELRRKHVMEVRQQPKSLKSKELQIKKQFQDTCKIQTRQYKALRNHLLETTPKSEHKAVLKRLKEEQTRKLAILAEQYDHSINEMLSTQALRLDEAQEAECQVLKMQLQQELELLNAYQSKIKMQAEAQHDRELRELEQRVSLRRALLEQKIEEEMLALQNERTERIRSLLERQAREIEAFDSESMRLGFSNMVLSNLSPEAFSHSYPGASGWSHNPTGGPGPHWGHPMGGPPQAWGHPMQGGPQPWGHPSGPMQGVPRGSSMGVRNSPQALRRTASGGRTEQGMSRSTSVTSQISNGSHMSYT
Chain of UniProt Q96BR1 (whole entry, looked up): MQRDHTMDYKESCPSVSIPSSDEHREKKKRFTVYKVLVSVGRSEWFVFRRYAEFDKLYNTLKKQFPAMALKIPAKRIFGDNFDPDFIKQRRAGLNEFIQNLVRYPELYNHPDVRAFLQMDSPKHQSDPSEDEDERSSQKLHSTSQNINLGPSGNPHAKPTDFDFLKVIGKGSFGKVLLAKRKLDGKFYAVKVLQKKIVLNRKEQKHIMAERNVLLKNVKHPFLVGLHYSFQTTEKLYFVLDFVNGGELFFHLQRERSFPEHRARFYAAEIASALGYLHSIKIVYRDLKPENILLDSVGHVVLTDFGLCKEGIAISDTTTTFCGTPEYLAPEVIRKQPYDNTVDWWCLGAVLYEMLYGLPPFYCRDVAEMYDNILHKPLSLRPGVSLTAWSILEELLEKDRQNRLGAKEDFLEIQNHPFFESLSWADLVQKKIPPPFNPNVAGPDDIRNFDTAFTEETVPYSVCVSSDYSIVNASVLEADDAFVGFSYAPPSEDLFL
Chain of UniProt Q9BYT3 (whole entry, looked up): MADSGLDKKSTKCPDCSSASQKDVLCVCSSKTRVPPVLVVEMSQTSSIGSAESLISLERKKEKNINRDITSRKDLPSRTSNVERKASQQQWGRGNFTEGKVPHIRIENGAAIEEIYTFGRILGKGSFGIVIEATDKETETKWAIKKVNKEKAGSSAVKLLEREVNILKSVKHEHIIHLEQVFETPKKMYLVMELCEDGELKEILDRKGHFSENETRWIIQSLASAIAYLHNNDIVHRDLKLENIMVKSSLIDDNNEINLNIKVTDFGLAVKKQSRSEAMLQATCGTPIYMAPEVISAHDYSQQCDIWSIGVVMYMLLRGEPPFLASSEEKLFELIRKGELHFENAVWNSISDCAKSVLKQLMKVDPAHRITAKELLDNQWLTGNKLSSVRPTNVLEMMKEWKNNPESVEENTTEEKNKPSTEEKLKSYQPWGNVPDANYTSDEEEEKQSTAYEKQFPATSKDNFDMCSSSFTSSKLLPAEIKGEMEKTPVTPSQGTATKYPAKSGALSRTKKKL
Chain of UniProt O94806 (whole entry, looked up): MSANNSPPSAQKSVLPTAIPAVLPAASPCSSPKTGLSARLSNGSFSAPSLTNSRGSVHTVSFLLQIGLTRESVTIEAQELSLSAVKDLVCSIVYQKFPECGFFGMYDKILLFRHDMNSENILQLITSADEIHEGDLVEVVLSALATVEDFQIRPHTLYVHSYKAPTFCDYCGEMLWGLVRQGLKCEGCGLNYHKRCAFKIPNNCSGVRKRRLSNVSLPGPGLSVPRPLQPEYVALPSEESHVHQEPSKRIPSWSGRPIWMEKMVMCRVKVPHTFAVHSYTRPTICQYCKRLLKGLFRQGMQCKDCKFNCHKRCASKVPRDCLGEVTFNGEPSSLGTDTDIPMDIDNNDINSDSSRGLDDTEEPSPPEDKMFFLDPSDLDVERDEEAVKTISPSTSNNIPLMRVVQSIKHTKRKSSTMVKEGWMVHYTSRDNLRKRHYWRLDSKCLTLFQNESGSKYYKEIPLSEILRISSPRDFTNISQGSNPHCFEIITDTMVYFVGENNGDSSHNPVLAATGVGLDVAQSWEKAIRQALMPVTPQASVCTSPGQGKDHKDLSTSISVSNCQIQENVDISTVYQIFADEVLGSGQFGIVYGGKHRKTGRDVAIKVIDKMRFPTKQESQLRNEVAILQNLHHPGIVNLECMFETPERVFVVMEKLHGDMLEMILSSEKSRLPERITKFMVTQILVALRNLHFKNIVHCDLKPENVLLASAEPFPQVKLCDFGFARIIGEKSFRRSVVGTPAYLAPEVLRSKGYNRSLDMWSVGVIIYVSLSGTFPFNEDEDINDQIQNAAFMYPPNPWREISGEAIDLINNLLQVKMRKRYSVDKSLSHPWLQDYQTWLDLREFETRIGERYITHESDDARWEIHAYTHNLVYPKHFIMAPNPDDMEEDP
Chain of UniProt P53350 (whole entry, looked up): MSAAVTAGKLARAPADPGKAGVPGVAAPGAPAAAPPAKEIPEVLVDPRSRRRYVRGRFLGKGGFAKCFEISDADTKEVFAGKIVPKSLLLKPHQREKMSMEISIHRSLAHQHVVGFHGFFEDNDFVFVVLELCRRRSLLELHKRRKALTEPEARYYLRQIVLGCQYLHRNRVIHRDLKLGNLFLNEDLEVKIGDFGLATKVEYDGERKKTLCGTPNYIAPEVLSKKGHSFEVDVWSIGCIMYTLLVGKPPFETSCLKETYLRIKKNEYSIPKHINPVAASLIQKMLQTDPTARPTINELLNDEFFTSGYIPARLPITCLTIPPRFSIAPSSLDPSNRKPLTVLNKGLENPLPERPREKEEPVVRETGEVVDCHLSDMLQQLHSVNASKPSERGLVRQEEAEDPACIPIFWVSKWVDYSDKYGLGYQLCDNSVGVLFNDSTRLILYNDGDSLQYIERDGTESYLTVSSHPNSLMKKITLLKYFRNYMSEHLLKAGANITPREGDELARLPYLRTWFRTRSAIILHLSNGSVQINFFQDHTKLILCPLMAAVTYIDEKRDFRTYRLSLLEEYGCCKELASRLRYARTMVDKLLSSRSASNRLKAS

Series 1 — effect on: enzyme activity; action: inhibitor; concentration: 0.5 µM; relative to: control
Compound: COc1ccc2c(c[n+](C)c3c4cc5c(cc4ccc23)OCO5)c1OC
target | remaining activity
SGK3 (Homo sapiens, UniProt Q96BR1) | 96%
PLK1 (Homo sapiens, UniProt P53350) | 93.6%
PHKG2 (Homo sapiens, UniProt P15735) | 94.8%
DSTYK (Homo sapiens, UniProt Q6XUX3) | 86.4%
PRKD3 (Homo sapiens, UniProt O94806) | 99.3%
TAOK1 (Homo sapiens, UniProt Q7L7X3) | 105%

Series 2
SMILES: CO[C@@H]1[C@@H](OC(N)=O)[C@@H](O)[C@H](Oc2ccc3c(O)c(NC(=O)c4ccc(O)c(CC=C(C)C)c4)c(=O)oc3c2C)OC1(C)C
cell line | concentration | setting | relative to | clonogenic survival
CAPAN-1 (BRCA2-mutant) | 50 µM | – | – | 43% and 57%
RPE-1 BRCA2-/- | 75 µM | unit not given | untreated | 0.752 and 0.857
CAPAN-1 BRCA2-corrected | 100 µM | – | – | 86.8% and 84.8%
RPE-1 BRCA1-/- | 25 µM | – | – | 62.5% and 45% and 78.8%
RPE-1 wild type | 150 µM | unit not given | untreated | 1.06 and 0.987 and 0.75
CAPAN-1 BRCA2-corrected | 200 µM | – | – | 82.8% and 72.7%
RPE-1 wild type | 200 µM | unit not given | untreated | 0.0125 and 0.1 and 0.0526

Series 3 — effect on: binding; method: radioligand binding; concentration: 10 µM
Target: Sodium-dependent noradrenaline transporter (SLC6A2, Homo sapiens, UniProt P23975)
Chain of UniProt P23975 (whole entry, looked up): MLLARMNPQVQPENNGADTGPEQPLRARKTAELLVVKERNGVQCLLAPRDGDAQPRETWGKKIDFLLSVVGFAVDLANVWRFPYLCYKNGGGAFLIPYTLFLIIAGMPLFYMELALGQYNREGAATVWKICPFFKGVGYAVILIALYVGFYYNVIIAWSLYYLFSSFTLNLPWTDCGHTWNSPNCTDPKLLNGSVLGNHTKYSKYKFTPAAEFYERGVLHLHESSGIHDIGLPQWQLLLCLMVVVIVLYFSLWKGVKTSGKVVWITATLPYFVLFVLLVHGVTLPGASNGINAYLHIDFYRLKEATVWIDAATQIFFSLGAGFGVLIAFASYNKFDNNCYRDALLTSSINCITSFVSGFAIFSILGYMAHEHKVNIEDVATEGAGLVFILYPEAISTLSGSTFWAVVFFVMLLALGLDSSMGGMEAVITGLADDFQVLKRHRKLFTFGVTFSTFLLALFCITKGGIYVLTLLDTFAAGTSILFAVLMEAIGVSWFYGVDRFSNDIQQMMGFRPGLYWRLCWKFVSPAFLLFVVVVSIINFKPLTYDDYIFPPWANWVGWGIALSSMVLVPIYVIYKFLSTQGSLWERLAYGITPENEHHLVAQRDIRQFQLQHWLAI
Compound | inhibition [%]
Cc1nc(Cc2cccc(C(F)(F)F)c2)sc1-c1ccc(C(N)=O)nc1 | -8.77
Cc1c(N2CCCC2)nc2ccc(Br)cc2c1C(=O)NC[C@H](CCC(=O)O)c1ccccc1Cl | -12.9
COc1cccc(CNC(=O)c2nc3scc(COCc4ccc(C(=O)O)cc4)c3c(=O)[nH]2)c1 | 12.6
CN1CCN(C(=O)C(C)(C)c2ccc(C(=O)Nc3cn4cc(-c5ccncc5)ccc4n3)cc2)CC1 | 5.3
CNC(=O)Nc1ccc2c(c1)[C@]1(CC2)OC(=O)N(CC(=O)N(Cc2ccc(F)cc2)[C@@H](C)C(F)(F)F)C1=O | -12
O=C1CCc2cc(Nc3cc(OC4CCOCC4)c([N+](=O)[O-])cc3Cl)ccc2N1 | 0.76
O=C(O)c1cc(-c2ccc(C3CCNCC3)cc2)c2ccc(-c3ccc(C(F)(F)F)cc3)cc2c1 | 23.6
O=C(Nc1ccc(-n2nc(-c3cccnc3)cc2C(F)(F)F)cn1)c1ccc(-c2ccccc2)c(F)c1 | -9.35
c1ccc(C2CCN(c3cnc4c(N5CCOCC5)nccn34)CC2)cc1 | 17.4
Cc1nc(C2CCN(C(=O)c3ccc(OC(F)(F)F)cc3N)CC2)c2ncc(N3CCN(C)CC3)cc2n1 | 24.6
O=C(Nc1cccnn1)N1CCC(=Cc2cccc(Oc3ccc(C(F)(F)F)cn3)c2)CC1 | 7.86
Cc1c[nH]c2nccc(Oc3c(F)cc(Nc4cc(Cl)nc(N)n4)cc3F)c12 | -19.2
CC1=C(C#N)[C@@H](c2ccc3[nH]nc(C)c3c2)C(C#N)=C(c2ccc(Cl)cc2)N1 | 8.56
Cc1cc(-n2nc(Cc3cc(F)cc(C(F)(F)F)c3)nc2C)ccc1C(N)=O | -6.7
CC(=O)Nc1c(F)cc(C(=O)N[C@H]2CC[C@H](O)CC2)cc1O[C@@H](C)c1ccccc1 | -0.92
Cc1c(NC(=O)c2cc(C(N)=O)nc3cc(F)ccc23)c(C(F)(F)F)nn1Cc1ccc(C(C)(C)C)cc1 | -4.06
Cc1nccc(COC(=O)N2C[C@@H]3[C@@H](CNC(=O)c4ccc5[nH]nnc5c4)[C@@H]3C2)n1 | -7.15
COc1nc2ccc([C@@](O)(c3ccccc3)C3CCN(C(C)=O)CC3)cc2c(Cl)c1Cc1ccc(-n2cccn2)cc1 | 21.7
CC(C)(O)c1cncc(-c2nc3ccc(F)cc3n2C2CC2)c1 | 2.3
CN1C(=O)[C@@H](N2CCc3c(nn(Cc4ccccc4)c3Br)C2=O)COc2ccccc21 | -7.47
CC(=O)c1c(NS(C)(=O)=O)c2cc(-c3ccc(Cl)cc3)c(-c3ccc(Cl)cc3Cl)nc2n(C)c1=O | 20.2
CCCOc1ccc([C@H]2[C@H](C(=O)O)[C@@H](c3ccc4c(c3)OCO4)CN2CC(=O)Nc2c(CC)cccc2CC)cc1 | -17.5
O=C(Nc1cnc(Oc2ccc(F)cc2)nc1)N1CCc2ncccc2[C@@H]1c1ccc(F)cc1 | 10.2
CC(=O)Nc1nc(CN2CCC[C@H](Cc3cc(C)nc(C)c3)C2)cs1 | 17.8
C[C@@H]1CN(c2cc(-c3nn(C)c4ccc(OC5(C)CC5)cc34)ncn2)C[C@H](C)O1 | 30.6

Series 4 — cell line: mouse MPNST tumor cells; method: high-content immunofluorescence imaging; measured: nuclear SOX9; concentration: 10 µM; time: 12 h; setting: mean of 2 replicates; relative to: DMSO control; direction: higher = more nuclear SOX9
SMILES | nuclear SOX9 intensity
Cc1ccccc1C(c1ccccc1C)N1C2CCC1CC(O)(c1ccccc1)C2 (stereo not drawn) | 101 % of DMSO
N[C@@H]1C[C@H]1c1ccccc1 | 77.4 % of DMSO and 99.8 % of DMSO
NC(=O)OCCCc1ccccc1 | 88.9 % of DMSO
COc1ccccc1CN[C@H]1C2CCN(CC2)[C@H]1C(c1ccccc1)c1ccccc1 | 156 % of DMSO
CC(C)(C)c1cc(C(C)(C)C)c2c(c1)C(O)(C(F)(F)F)C(=O)O2 (racemic) | 99.5 % of DMSO
CCC(=O)O[C@H]1CC[C@H]2[C@@H]3CCC4=CC(=O)CC[C@]4(C)[C@H]3CC[C@]12C | 89.7 % of DMSO

Series 5 — organism: Cryptosporidium parvum; method: time-kill; cells: HCT-8; strain: nanoluciferase-expressing; direction: higher = more parasites
SMILES: CNC(=O)c1ccc(-c2cnn3ccc(C(=O)N(C)c4ccc(Cl)c(C(=O)OC)c4)cc23)cc1
concentration | time | parasite luminescence
0.00914 µM | 4 h | 94300 RLU and 92200 RLU
20 µM | 48 h | 26000 RLU and 30900 RLU
0.2469 µM | 72 h | 25800 RLU and 21300 RLU
0.02743 µM | 48 h | 26900 RLU and 22500 RLU
0.00102 µM | 4 h | 82300 RLU and 90400 RLU
0.00102 µM | 24 h | 253000 RLU and 160000 RLU

Mixed results
SMILES | target | effect on | action | concentration | measurement | result
CC#CC(=O)N1CCC[C@H]1c1nc(-c2ccc(C(=O)Nc3ccccn3)cc2)c2c(N)nccn12 | Serine/threonine-protein kinase 33 (STK33, Homo sapiens, UniProt Q9BYT3) | enzyme activity | inhibitor | 1 µM | inhibition | 0%
